Published values of several laboratories.
Every numbered part comes from another study and shows a few of its results, in no order.

Study 1 — technique: RNA Bind-n-Seq; molecule type: RNA; matrix: in vitro; tested at: 365 nM; baseline: no-protein control; reading: higher = stronger binding
Target: RNA binding protein fox-1 homolog 2, RRM domain, GST-SBP tag (RBFOX2, Homo sapiens, UniProt O43251-10, residues 100-194)
Setting: natural RNA segment, single round, ends assumed
All sequences stand within: GGGAGUUCUACAGUCCGACGAUC … UGGAAUUCUCGGGUGCCAA
Residues (chain): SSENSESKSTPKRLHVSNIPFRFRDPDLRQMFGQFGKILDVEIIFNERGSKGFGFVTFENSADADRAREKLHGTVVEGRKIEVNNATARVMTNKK
Sequence | RBNS enrichment (R)
UUCAAGCGGAAAACAUCUGAGAAUGGCUUUCCCAUAUUGCAUUACGGCAUGCAGAAGGCUUUAUUUUAAAGUCAUUCCAUCAGAGGUGUUCUCAGAAUUAGACCCCACCU | 1.05
UGCCCAGCCCUGUUCUAUUCUGCAGGGUCCCUGUGUUGGAAUUCUCCCUGGGGAACCUACUUUCUGCUCAGUGAGGCUCCGGCCAGAAACCUGGAGUCCUUAUCCUCCCC | 0.246
GGGAAGCUGGCCCGGCUGACUGGAGAAUGGGAACCCCAGGACUCUCCACUCAUCUCGAAGGGUUGUGGUCCCCCCAGGAAAGUCUCGAGACAAUGGGGACAUUGUUGGUA | 0.63
GCGACCUCACACAGCCUCUGCAGAUGGAUCCCUGCACGCCUCUUUCUGAUGAAGUGAUUGUAGUAGGUGUCUGUAGCUAGUCUUCAAGACCACACCUGGAAGAGUUUCUG | 0.377
UCUUAACAAAAUGAAAGUUCUCCAAAGACAAAACAGAACAAUUAUUAUAACAAAAUAAUUAUGGUUGAAAUGUCUGUGGUUCCUUGGAAAUGCUGCGCUCUUUGUGUUUU | 0.616
UUGCUACUGCGGACCUGUGGCUCCCUUGGCCAGCCAUGUUUUGGGAAAGAGUUCACAUCUUAGGUUUGAAAGGGAGCAUUUGAGUCUUCUCACUGACCUCUUCCUAGCAG | 2.2
UCCUUUAAUCACAGUCACUGUUUGUUUACCUUGAGCAGUAAACCCGAAGUCAGCCUGCUCUACUACUAACAAACAGGCCUGCUGCUAGAUGAUCUCUAAUGACCAAUGGG | 0.473
GCCCCUUCAGCUGCUAGUGAUAUCACUUGUUGGACAUUUUUCCAAUAAAGGUUCUUGGACAAACUGGGCUGACUGUAUAGUAUGCUGAAGACAUUUCCUCACCUUGUCUC | 0.447
UGUGUUAAAUAAAUGUGUAAAGUAACCACCAAAUGUUAUUAGAAUUUUUCUUCUAGCAUUUAUAAUUUUUUCAACUCCUAUUGUGUUUCUUUGUGUGUGAUAUUUUAAUC | 0.895
UCAGUGUCUGGGGCUCUGGUAGAUGUGUUGAGGGCAAAGUAGAGGACAAGCUGUCUUUCCCAGUCAGCCAGGGAGCUCCCCGCCAGGCCACGCCCCAGCCACUUUGCUCC | 0.614
CUCACCUCAGCCUCCCAAAAUCCUGGGGUUACAGAUGUGAGCUACCACUCACGGCCCAAAUCUUCUUGAUCAUAUGUUUAAAUAUAUUUUUUAAUAUUUGGAGCAUGAGU | 0.359
GUCACAUGCAUUCUGUGGUGGCCAGCACUACGAAAUGCUACCUUCAAUAAACUGAACCUGCCACUCACUCAGCCUGCCUCUCCAUCCUCACGUGGCCCCGAGGGGAAGGG | 0.628

Study 2 — technique: protein-binding microarray; molecule type: double-stranded DNA, one strand shown; matrix: in vitro; tested at: 2200 nM top; setting: 60-bp whole probe; added: salmon DNA 0.4 mg/ml; baseline: random background probes; reading: higher = stronger binding; all sequences stand within: GCCTAGCAC … GTCTTGATTCGCTTGACGCTGCTG
Target: Interferon regulatory factor 7, full length, phosphomimetic (IRF7, Homo sapiens, UniProt Q92985, residues 1-503, S471D/S472D/S475D/S476D/S477D/S483D/S484D/S487D)
Chain of UniProt Q92985 (whole entry, unmodified, looked up): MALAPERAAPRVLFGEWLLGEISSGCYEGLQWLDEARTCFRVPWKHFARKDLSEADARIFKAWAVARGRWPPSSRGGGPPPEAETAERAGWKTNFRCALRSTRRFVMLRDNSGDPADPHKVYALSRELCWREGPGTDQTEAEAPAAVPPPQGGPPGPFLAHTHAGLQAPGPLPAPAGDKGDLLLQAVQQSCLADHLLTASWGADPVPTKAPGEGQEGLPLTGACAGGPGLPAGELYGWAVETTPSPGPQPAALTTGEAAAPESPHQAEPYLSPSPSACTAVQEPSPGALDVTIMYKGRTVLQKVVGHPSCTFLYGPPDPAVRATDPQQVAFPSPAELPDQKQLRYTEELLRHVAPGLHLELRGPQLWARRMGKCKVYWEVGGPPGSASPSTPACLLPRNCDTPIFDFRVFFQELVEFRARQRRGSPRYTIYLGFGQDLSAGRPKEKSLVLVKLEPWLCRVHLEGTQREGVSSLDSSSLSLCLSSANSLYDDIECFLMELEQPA
Sequence | fitted relative affinity [z-score]
TTGCGTCTGGGTGTTTTCTAGTGCTAG | 1.02
TACGGACTGGGTCTCGGGACGTGCTAG | -0.68
GGGTCTTCAGGTTCTCCCCCAGTGCTA | 0.0517
CTAATTTTCATTTTCCAAATGTGCTAG | 6.93
TTAGATCTCAGTTTCAATTAGTGCTAG | 0.77
TTAGATATCAGTATCGATTGGTGCTAG | 0.614
TCAAATCTCCCATTATAACTGTGCTAG | 0.822
TTAGATATCGGGACTGGACTAGTGCTA | -0.54
GACGGAATGGGGACTGGGGACGTGCTA | -0.343
TCAAATATATATTCATAACTGTGCTAG | 0.0938
TTAGGACTGGACTATCGGTTAGTGCTA | -0.28
TTAGGTTTCATTTCCCTTTAGTGCTAG | 5.02
TTAGGTATAGGTATCGGTTAGTGCTAG | 0.142
TTAGATATCAGTCTCCATTAGTGCTAG | 0.396
GCAGGGCAGGCAGGCTGAGGGTGCTAG | -1.58
TTAGGACTGCTAGTGCTTTAGTGCTAG | -0.4

Study 3 — technique: protein-binding microarray; molecule type: double-stranded DNA, one strand shown; matrix: in vitro; tested at: 0.8 µM; setting: whole 60-bp probe, no competitor; reading: higher = stronger binding; all sequences stand within: … GTCTTGATTCGCTTGACGCTGCTG
Target: Centromere-binding protein 1, full length, N-terminal tag (CBF1, Saccharomyces cerevisiae, UniProt P17106, residues 1-351)
Chain of UniProt P17106 (whole entry, looked up): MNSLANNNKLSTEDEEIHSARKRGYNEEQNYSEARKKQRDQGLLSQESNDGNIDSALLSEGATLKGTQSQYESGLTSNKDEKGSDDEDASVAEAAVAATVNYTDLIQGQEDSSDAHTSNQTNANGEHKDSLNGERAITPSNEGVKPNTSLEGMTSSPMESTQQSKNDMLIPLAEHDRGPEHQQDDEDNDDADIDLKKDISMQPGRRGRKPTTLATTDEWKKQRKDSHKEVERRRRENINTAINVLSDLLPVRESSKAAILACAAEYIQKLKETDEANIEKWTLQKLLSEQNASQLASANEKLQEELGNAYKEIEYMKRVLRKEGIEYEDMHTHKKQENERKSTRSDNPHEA
Sequence | fluorescence intensity [a.u.]
GAAATGCTGCACAAAAACGTGCCAGCAATGCAATAG | 778
CTACGAATGAAAAGCACGTGAACTAACAAACTATTC | 5400
GAACATTTACGCTTTCACGCAACTTTATTATATTAG | 572
GAACTAAAAAGATGTTTCGTGATTCTCCTAGTATAG | 522
CTAATTTAAGTTAATGACGTCATGGTGGTATAGTTC | 548
CTATTTTCAAAACACCACGAAAAGACTTCATTCTTC | 548
CTAATATATACACACCACACCACACCCACACACTTC | 633
CTATGCTTACCCTCCCACGTGCTAGATTTTTCGTTC | 6090
CTACCCTCCCCCATGCATGTGGAGTCATAGGAGTTC | 528
CTAAGGTTCCTAGATCAGATGAAGCCTTTTGTATTC | 526
GAAAACTAGTCACCACAGGTGAGGCAATTACCGTAG | 495
GAATAATGAATCTGTGACCTTTCTTTGCTATAGTAG | 584
GAATTCTGTAGGAGTCACGTTTCCCGTTGAAATTAG | 2750
GAAACCAATGTCCTCCACGGGATCGCCACTTTTTAG | 601
CTAGTAAGTATCCCGCGCGTGGTCCTCGGGGAATTC | 491
CTATTTGTGGCCGATCACGCTAAAGATTAGGCATTC | 649
GAAAAATGACATAGTCATCTGATATTTCTACTCTAG | 671
CTACTAAAGAACGTGCATCAGAGAAGAATAACTTTC | 674
CTATCATCAAAACCCCACGTAATGTTTGTTCTCTTC | 546
CTAAATCTCTGAAATCATATGAAGATCTTGCTGTTC | 500
CCTAACTACTATAGGCCCGTGGAATAGCTTCGTACA | 512
CTATTTGCATACACGTGACTTATATTTGGTGTCTTC | 19200
GAATCTTGAACGCTGCTGACCACGGTTTCACTGTAG | 560
GAAAAAAGGCAATATCACGTGCTTTTACAAATATAG | 11200

Study 4 — technique: universal PBM; molecule type: double-stranded DNA, one strand shown; matrix: in vitro; tested at: not given; reading: higher = stronger binding
Target: Sal-like protein 4, full length isoform B (SALL4, Homo sapiens, UniProt Q9UJQ4-2, residues 1-616)
Setting: 8-mer, flanks averaged, mean of replicates
Sequence | E-score
CATTAACG | 0.117
CGCCGCCC | -0.41
AATGGCAC | -0.0313
GTGACACA | 0.0704
CGCCCAGC | -0.277
ACAAACCG | -0.0618
CACTCCGG | -0.166
ATCAAAGG | 0.109
CACGAAGA | 0.0176
AAACGCTT | 0.0353
ATCCGGTG | -0.149
CCTTTCTC | 0.0694
CGCAGATA | 0.00834
ATCCACGA | 0.0997
ACGGCGGA | -0.218
TGTTGTAA | 0.21
AGACTCTC | -0.173
CAGAACGA | 0.0498
AGTTTTGG | 0.15
TACCGAGA | -0.0484
ACAGCAAT | 0.237
ACGGCCGC | -0.276
CACTAAAC | 0.112
CGTTTGGA | -0.0865
ACTCACAC | -0.0939

Repeated from above (study 3):
Sequence | fluorescence intensity [a.u.]
GAATTCTGTAGGAGTCACGTTTCCCGTTGAAATTAG | 2750
GAAACCAATGTCCTCCACGGGATCGCCACTTTTTAG | 601
CTAGTAAGTATCCCGCGCGTGGTCCTCGGGGAATTC | 491
CTATTTGTGGCCGATCACGCTAAAGATTAGGCATTC | 649
GAAAAATGACATAGTCATCTGATATTTCTACTCTAG | 671
CTACTAAAGAACGTGCATCAGAGAAGAATAACTTTC | 674
CTATCATCAAAACCCCACGTAATGTTTGTTCTCTTC | 546
CTAAATCTCTGAAATCATATGAAGATCTTGCTGTTC | 500
CCTAACTACTATAGGCCCGTGGAATAGCTTCGTACA | 512
